Experimental data collected from several papers.
Each line is one published result; not all experiments were run side by side. Numbers after ± are the reported error.

SMILES | assay | system | conditions | scale | quantity | result
CC(=O)N[C@H](CC(=O)O)C(=O)N[C@H](Cc1c[nH]c2ccccc12)C(=O)N[C@H](Cc1ccccc1)C(=O)N[C@H](CCCCN)C(=O)N[C@H](C)C(=O)N[C@H](Cc1ccccc1)C(=O)N[C@H](Cc1ccc(O)cc1)C(=O)N[C@H](CC(=O)O)C(=O)N[C@H](CCCCN)C(=O)N[C@@H](C(=O)N[C@H](C)C(=O)N[C@H](CCC(=O)O)C(=O)N[C@H](CCCCN)C(=O)N[C@H](Cc1ccccc1)C(=O)N[C@H](CCCCN)C(=O)N[C@H](CCC(=O)O)C(=O)N[C@H](C)C(=O)N[C@H](Cc1ccccc1)C(N)=O)C(C)C |  | statin-treated high-risk CHD patients, plasma | oral, 300 mg daily, day 13, 0 to 8 h, mean, detected subjects only |  | Cmax | 8.1 ng/mL
O=C([O-])CN1CCN(CC(=O)[O-])CCN(CC(=O)NCC2CCC(C(=O)NC(Cc3ccc4ccccc4c3)C(=O)NCCCCC(NC(=O)NC(CCC(=O)O)C(=O)O)C(=O)O)CC2)CCN(CC(=O)[O-])CC1.[44Sc+3] (stereo not shown) | transmetallation stability |  | 24 h, 37 °C, together with: Ca2+ 10 mM |  | intact complex | 96.7 ± 0.8%
COc1cc(NC(C)=O)c2c(c1O)-c1c(OC)c(OC)cc3c1C(C2)N(C)CC3 (stereo not shown) |  | rat liver homogenate | 0.5 µg/mL, time not given, three freeze-thaw cycles |  | remaining compound | 102 ± 4.7%
CC(C)(O)c1ncc([S@](N)(=O)=NC(=O)Nc2c3c(cc4c2CCC4)CCC3)s1 |  | healthy human volunteers, plasma | oral, 30 mg once daily, day 14, capsule formulation |  | half-life | 15.9 h
CCc1c2c(nc3ccc(O)cc13)-c1cc3c(c(=O)n1C2)COC(=O)[C@]3(O)CC |  | human patients, plasma | intravenous, 42 mg/m^2 of parent drug |  | Tmax | 1.52 h
NC[C@@H](C(=O)Nc1ccc(-c2cn[nH]c2)cc1)c1ccccc1 | OECD 405 eye irritation | New Zealand White rabbit, eye | topical, 0.1%, 49 h (day 3), scale 0 to 4 | direction not given | chemosis score | 0
NC(=O)[C@@H](CCCCNC(=O)CNC(=O)CCC(=O)NCCc1c[nH]cn1)NC(=O)[C@@H](CCC(=O)O)NC(=O)[C@@H](CCCCNC(=O)CNC(=O)CCC(=O)NCCc1c[nH]cn1)NC(=O)[C@@H](Cc1ccc(O)cc1)NC(=O)CN1CCN(CC(=O)O)CCN(CC(=O)O)CCN(CC(=O)O)CC1 [indium-111 labelled] | SPECT | human CEACAM5 tumour patients | dose not given, 24 h, 100 µg IMP288, together with: TF2 75 mg, 5 days interval |  | tumour activity concentration | 1.4 %ID/kg
CC(C)C[C@@H](NC(=O)[C@H](NC(=O)[C@H]1CCCN1)[C@H](C)O)C(=O)N[C@H](Cc1c[nH]cn1)C(=O)N[C@@H](C(=O)N[C@H](Cc1c[nH]cn1)C(=O)N[C@H](CC(N)=O)C(=O)N[C@H](CCCNC(=N)N)C(=O)N[C@H](CCCNC(=N)N)C(=O)N[C@H](CCCNC(=N)N)C(=O)N[C@H](CCCNC(=N)N)C(=O)N[C@H](CCCNC(=N)N)C(N)=O)[C@H](C)O |  | Beagle dog, plasma | intravenous, 3 mg/kg, single dose |  | AUC fraction of alpha phase | 3.6%
CC(C)C[C@@H](N)C(=O)N[C@H](CC(=O)O)C(=O)N[C@@H](C(=O)N[C@H](Cc1ccccc1)C(=O)N[C@H](CC(C)C)C(=O)N[C@H](Cc1ccc(O)cc1)C(=O)N[C@H](CO)C(=O)N[C@H](CCC(=O)O)C(=O)O)C(C)C |  | mouse, 4T1 and MC-38 tumour models | dose not given |  | red blood cell count | no effect
CC(C)c1cnc(-c2cc(Cl)ccc2F)cc1Nc1ccncc1C(=O)NC(CO)CO | measured: any event, worst grade | human patients | oral, dose not given, grade 2 |  | patients with related SAE | 0%
O=C(O)C1OC(OC2C(COS(=O)(=O)O)OC(OC3C(C(=O)O)OC(OC4C(COS(=O)(=O)O)OC(OC5C(C(=O)O)OC(OC6C(COS(=O)(=O)O)OC(OC7C(C(=O)O)OC(OC8C(COS(=O)(=O)O)OC(OC9C(C(=O)O)OC(OC%10C(COS(=O)(=O)O)OC(OC%11C(C(=O)O)OC(Oc%12ccc([N+](=O)[O-])cc%12)C(O)C%11O)C(NS(=O)(=O)O)C%10O)C(OS(=O)(=O)O)C9O)C(NS(=O)(=O)O)C8O)C(OS(=O)(=O)O)C7O)C(NS(=O)(=O)O)C6O)C(OS(=O)(=O)O)C5O)C(NS(=O)(=O)O)C4O)C(OS(=O)(=O)O)C3O)C(NS(=O)(=O)O)C2OS(=O)(=O)O)C(O)C(O)C1OC1OC(COS(=O)(=O)O)C(O)C(O)C1NS(=O)(=O)O (stereo not shown) |  | rats, serum | intravenous, 3600 µg/kg/day for 7 days, day 8 |  | alanine aminotransferase | 38.6 ± 2.4 U/L
COCCOCCOCCOCCOCCOCCOCCOCCC(=O)NCCCc1cc2cc3nc(cc4[nH]c(cc5nc(c(OC)c1[nH]2)C(=O)C5(C)C)cc4CCc1ccc(C(=O)O)cc1)CC3(C)C |  | water with 5% DMF | room temperature |  | kf^−1 | 37 ns
CCc1cc(Nc2nc(-c3ccc(-n4cnc(C)c4)c(F)c3)cs2)c(C)cc1C |  | human, both sexes, plasma | oral, 200 mg, day 1, multiple dose, geometric mean |  | AUC(0-last) | 3250 ng·h/mL
NCCCC[C@H](NC(=O)[C@@H]1CCCN1C(=O)[C@@H]1CSSC[C@H](NC(=O)CNC(=O)CNC(=O)CN)C(=O)N[C@@H](Cc2ccc(O)cc2)C(=O)N[C@@H](Cc2ccccc2)C(=O)N[C@@H](CCC(N)=O)C(=O)N[C@@H](CC(N)=O)C(=O)N1)C(=O)NCC(N)=O |  | male Sprague Dawley rats | iv, single dose |  | adverse effect level (ataxia) | 1.5 mg/kg
COC(=O)c1ccc(-c2cn(Cc3cc(Cl)ccc3O[11CH3])nn2)cc1 | PET one-tissue compartment model | rhesus monkey, basal ganglia | dose not given |  | distribution volume (VT) | 0.585 mL/cm³
O=C(O)CN1CCCN2CCN(CC1)CCN(CC(=O)O)CC2 [copper-64 labelled] |  | rat, male, juvenile Lewis | intravenous, 100 µCi, 24 h |  | liver clearance | 66.4%
CC(C)[C@H](NC(=O)[C@@H]1CCCN1C(=O)[C@H](CCCNC(=N)N)NC(=O)[C@H](CS)NC(=O)[C@H](Cc1c[nH]c2ccccc12)NC(=O)[C@H](CCCNC(=N)N)NC(=O)[C@@H](Cc1ccccc1)NC(=O)[C@H](Cc1c[nH]cn1)NC(=O)[C@H](CCC(=O)O)NC(=O)[C@H](CS)NC(=O)[C@H](CS)NC(=O)[C@@H]1CC(=O)N[C@@H](CCCNC(=N)N)C(=O)NCC(=O)N[C@@H](CC(=O)O)C(=O)N[C@H](Cc2ccc(O)cc2)C(=O)N1)C(N)=O [technetium-99m labelled] |  | C57 mouse, female, B16/F1 melanoma, lung | intravenous, 0.037 MBq, 24 h |  | tissue uptake | 0.24 ± 0.08 %ID/g
C#CCN(CCCNC(=O)CCCCC[N+]1=C(/C=C/C2=C(Cl)C(=C/C=C3\N(CCCCCC(=O)[O-])c4ccccc4C3(C)C)/CCC2)C(C)(C)c2ccccc21)CCCOc1ccc(Cl)cc1Cl |  | mouse plasma | 1 µg/mL nominal, 4 h, on ice |  | concentration | 940 ± 100 ng/mL
CC[N+]1(Cc2ccc3ccc(O)c(C#N)c3n2)CCCC1CNC(=O)c1cc(S(N)(=O)=O)ccc1OC (stereo not shown) |  | KMOPS buffer | 0.1 mM, pH 7.2 |  | ε365 | 6500 M⁻¹ cm⁻¹
CN(CCCN=Cc1ccccc1[O-])CCN(C)CCCN=Cc1ccccc1[O-].[67Ga+3] |  | rat | intravenous, 1 min | relative to: heart over lung | tissue uptake ratio | 2.13 ± 0.12
Cn1c(=O)oc2ccc(-c3ccc(CC(C#N)NC(=O)C4CNCCCO4)c(F)c3)cc21 (stereo not shown) |  | human, plasma | 10 to 40 mg once daily for 28 days |  | Tmax | 1.5 h
C#CCOc1ccc(/C=C2\SC(=O)N(CC(=O)NCc3ccccc3)C2=O)cc1 | inverse Kirkwood-Buff integrals | binary solvent mixture | 298.15 K, mole fraction x1 0.65 |  | Kirkwood-Buff integral G1,3 | -260 cm³/mol
Cc1ccc(CN2C(=O)/C(=N\c3ccc(Cl)cc3Br)c3ccccc32)cc1 |  | mouse | 100 to 200 mg/kg, 7 days |  | body weight loss | ~10%
CC(C)CCCC(C)CCCC(C)CCOC1OC[C@@H](O)[C@H](O)[C@H]1O (stereo partly shown) | drop shape analysis | water/n-octane | solubility limit, 100 s, room temperature |  | interfacial tension | 21.2 mN/m
Oc1cc(F)ccc1Oc1ccccc1 |  | CD-1 mice, plasma | subcutaneous, 100 mg/kg |  | absorption rate constant | 3.5 ± 2.5 h⁻¹
COc1cc(N(C)CCN(C)C)c(NC(=O)CCSCC(NC(C)=O)C(=O)O)cc1Nc1nccc(-c2cn(C3CC3)c3ccccc23)n1 (stereo not shown) | radio-HPLC, co-eluting peaks pooled | human, feces | 0 to 240 h, sample holds 81.99% dose | relative to: dose | excreted amount | 2.04%
CC(C)[C@H](NC(=O)CNC(=O)[C@H](CCC(N)=O)NC(=O)[C@H](C)N)C(=O)O |  | human, both sexes, plasma | intravenous infusion, 45 mg/kg/h, 2 h infusion, geometric mean |  | Cmax | 1380 ng/mL
COc1cc(/C=C/C(=O)N2CCc3ccccc3C2)ccc1O[11CH3] | PET-CT imaging | C57BL/6 mouse, male, lung | intravenous, 5 min |  | uptake | 9.5 ± 0.15 %ID/cc
